Measurements collected from several papers.
Numbered parts are unrelated; each lists some results of a single study.
UniProt O15264, sequence (whole entry, looked up): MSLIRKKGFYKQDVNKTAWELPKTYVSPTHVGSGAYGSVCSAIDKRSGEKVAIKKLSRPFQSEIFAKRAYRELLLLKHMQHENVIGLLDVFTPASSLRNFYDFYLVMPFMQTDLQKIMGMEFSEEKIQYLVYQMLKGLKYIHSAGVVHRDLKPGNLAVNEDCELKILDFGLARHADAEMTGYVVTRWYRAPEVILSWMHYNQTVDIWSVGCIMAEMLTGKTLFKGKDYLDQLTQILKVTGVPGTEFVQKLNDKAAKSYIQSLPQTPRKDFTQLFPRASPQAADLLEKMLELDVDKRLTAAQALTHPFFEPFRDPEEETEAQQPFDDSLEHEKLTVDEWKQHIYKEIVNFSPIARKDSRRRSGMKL
UniProt P29597, sequence (whole entry, looked up): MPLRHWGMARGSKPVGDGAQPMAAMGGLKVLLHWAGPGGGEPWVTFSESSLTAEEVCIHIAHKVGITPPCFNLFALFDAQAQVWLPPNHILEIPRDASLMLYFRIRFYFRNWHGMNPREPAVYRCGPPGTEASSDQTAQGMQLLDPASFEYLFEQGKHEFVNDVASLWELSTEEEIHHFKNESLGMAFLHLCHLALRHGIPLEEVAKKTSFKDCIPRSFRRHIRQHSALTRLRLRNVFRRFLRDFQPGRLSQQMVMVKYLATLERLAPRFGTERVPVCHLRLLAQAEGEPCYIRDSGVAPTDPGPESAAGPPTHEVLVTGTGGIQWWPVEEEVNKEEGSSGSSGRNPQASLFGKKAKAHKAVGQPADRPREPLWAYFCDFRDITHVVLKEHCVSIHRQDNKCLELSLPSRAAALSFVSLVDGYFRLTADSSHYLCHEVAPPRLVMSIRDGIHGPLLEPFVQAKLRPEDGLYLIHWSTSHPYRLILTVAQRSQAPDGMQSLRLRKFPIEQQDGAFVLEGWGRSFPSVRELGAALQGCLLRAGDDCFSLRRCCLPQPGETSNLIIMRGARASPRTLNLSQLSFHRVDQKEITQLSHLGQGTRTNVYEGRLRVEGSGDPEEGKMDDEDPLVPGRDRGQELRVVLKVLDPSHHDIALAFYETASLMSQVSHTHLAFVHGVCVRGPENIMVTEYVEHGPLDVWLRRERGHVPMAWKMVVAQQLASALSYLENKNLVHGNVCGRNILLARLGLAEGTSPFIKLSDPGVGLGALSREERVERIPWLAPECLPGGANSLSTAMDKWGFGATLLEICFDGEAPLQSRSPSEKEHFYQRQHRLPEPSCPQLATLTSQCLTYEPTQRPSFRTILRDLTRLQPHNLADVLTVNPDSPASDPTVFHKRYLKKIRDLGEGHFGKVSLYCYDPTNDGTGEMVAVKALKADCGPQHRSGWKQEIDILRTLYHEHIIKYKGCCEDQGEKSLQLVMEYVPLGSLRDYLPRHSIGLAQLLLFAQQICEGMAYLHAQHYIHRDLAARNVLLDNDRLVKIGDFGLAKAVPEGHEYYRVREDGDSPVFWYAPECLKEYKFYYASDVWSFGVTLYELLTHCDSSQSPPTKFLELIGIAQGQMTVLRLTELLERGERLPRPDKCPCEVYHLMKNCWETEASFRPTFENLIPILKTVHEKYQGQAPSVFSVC
UniProt P11802, sequence (whole entry, looked up): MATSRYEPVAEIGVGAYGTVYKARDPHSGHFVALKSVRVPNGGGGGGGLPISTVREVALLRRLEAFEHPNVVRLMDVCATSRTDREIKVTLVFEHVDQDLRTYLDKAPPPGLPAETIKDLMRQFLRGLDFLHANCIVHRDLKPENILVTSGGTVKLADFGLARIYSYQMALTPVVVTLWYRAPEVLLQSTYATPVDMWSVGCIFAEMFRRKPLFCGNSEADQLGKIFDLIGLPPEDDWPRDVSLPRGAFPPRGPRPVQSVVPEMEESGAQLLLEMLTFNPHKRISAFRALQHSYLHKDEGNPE
UniProt Q9BXA7, sequence (whole entry, looked up): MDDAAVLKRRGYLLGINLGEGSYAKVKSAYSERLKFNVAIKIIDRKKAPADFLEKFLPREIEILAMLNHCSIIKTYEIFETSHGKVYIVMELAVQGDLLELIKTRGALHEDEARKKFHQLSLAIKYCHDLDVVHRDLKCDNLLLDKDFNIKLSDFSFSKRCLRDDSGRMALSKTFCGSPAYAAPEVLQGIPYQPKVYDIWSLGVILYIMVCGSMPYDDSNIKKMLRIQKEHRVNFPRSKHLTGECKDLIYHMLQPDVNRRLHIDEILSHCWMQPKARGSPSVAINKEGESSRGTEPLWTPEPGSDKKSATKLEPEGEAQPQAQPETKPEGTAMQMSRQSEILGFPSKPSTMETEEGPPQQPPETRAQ
UniProt Q9UL54, sequence (whole entry, looked up): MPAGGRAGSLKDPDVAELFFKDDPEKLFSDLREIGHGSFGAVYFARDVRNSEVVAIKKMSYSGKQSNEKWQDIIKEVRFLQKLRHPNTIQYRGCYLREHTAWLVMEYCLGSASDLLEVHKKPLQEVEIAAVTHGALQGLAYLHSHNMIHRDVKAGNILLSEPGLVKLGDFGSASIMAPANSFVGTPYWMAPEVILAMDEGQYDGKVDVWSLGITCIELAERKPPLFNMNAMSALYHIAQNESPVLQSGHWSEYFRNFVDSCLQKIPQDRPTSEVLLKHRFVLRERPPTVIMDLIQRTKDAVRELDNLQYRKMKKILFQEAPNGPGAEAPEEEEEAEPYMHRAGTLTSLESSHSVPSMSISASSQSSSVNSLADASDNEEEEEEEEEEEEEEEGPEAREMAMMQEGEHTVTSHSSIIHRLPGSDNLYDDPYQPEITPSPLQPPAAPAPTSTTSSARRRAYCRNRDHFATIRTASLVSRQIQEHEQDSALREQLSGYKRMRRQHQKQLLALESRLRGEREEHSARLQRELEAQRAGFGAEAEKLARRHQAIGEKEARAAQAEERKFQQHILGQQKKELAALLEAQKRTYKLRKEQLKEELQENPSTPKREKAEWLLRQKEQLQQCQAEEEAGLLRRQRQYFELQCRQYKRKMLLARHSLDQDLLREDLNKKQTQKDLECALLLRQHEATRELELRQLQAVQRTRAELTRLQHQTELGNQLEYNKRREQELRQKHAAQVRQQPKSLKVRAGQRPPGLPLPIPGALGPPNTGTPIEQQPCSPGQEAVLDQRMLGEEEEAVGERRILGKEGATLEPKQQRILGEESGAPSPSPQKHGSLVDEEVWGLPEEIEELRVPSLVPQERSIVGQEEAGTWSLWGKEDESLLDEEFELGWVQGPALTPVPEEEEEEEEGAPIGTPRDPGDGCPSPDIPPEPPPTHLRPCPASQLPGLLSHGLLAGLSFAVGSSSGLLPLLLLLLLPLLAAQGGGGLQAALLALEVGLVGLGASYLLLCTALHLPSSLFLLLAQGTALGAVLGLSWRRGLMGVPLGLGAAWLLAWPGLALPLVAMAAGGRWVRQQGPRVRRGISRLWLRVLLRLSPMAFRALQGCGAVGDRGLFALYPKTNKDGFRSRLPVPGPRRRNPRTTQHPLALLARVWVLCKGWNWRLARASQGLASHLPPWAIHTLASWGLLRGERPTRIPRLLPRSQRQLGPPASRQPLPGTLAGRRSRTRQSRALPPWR
UniProt Q7KZI7, sequence (whole entry, looked up): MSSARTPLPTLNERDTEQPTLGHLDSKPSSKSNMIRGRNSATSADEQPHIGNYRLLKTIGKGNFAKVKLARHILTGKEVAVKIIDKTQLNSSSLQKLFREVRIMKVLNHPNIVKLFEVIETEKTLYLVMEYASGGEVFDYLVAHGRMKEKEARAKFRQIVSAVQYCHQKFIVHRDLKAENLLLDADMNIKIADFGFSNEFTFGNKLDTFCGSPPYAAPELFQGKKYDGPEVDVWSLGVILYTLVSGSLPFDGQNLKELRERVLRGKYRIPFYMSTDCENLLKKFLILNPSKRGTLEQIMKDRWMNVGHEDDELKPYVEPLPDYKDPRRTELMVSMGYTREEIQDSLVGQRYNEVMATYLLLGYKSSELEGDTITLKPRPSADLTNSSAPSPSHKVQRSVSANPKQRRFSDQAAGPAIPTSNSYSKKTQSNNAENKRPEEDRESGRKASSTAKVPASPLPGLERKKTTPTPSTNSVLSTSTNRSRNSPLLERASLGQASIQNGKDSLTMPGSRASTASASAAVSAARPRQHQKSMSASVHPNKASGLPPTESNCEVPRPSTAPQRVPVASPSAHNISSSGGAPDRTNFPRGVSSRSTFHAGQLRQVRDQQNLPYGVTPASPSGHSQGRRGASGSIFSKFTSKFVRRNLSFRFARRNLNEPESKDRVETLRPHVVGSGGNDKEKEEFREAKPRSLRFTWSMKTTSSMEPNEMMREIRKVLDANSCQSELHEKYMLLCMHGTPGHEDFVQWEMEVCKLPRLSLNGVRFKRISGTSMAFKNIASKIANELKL

Sample 1
Compound: CN([C@@H]1CCc2c(CC(=O)O)c3ccccc3n2C1)S(=O)(=O)c1ccc(F)cc1
Observed: cell-free assay
Technique: competition with immobilised ligand
Concentration: 1 µM
target | remaining binding [%]
TSSK1B (Homo sapiens, UniProt Q9BXA7) | 100
Cyclin-dependent kinase 4, with cyclin D1 (CDK4, Homo sapiens, UniProt P11802) | 99
MAPK13 (Homo sapiens, UniProt O15264) | 91
TAOK2 (Homo sapiens, UniProt Q9UL54) | 82
MARK2 (Homo sapiens, UniProt Q7KZI7) | 100
Non-receptor tyrosine-protein kinase TYK2, JH2 (TYK2, Homo sapiens, UniProt P29597) | 100

Sample 2
Target: RNA binding protein fox-1 homolog 2, RRM domain, GST-SBP tag (RBFOX2, Homo sapiens, UniProt O43251-10, residues 100-194)
Technique: RNA Bind-n-Seq
Molecule type: RNA
Medium: in vitro
Concentration: 365 nM
Notes: natural RNA segment, single round, ends assumed
Reference: no-protein control
Direction: higher = stronger binding
Construct (chain): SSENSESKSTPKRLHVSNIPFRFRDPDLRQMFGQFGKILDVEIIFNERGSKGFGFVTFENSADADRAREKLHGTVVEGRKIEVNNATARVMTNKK
Sequence | RBNS enrichment (R)
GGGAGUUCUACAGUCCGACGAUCGAUCUGAUUUUCUUUCUUCUUUCUUUUUUUCUAAUUGAGAGGAUUAUUCCCAGUAAGCUUCCAUGACCCUUUCUUGGAGGCCUUCACAGGUAAUACAGAUACUGGCACUGUGGAAUUCUCGGGUGCCAA | 0.316
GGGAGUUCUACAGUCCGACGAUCUUAACUGUGAUCCAGUACCUGUAAUACAGGAACACACAAUGUAUAUGGGGAAGCCCUUUGGCUUCAGAUUGCCUAUGUUUGAAUAAUAAUAAUAAUAGAUGGCCUAUUGUUGGAAUUCUCGGGUGCCAA | 0.725
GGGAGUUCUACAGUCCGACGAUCGCAAGGAGCAAGGACUUGGGCUUCUCCACGCUUUGCUCCUGGCUUGUUUGACCUUGACUCAUUCCCCAUAUGUCUUUGAGGAGGCUCACAAAAUACUAAAGCUGGGAGGAUGGAAUUCUCGGGUGCCAA | 0.372
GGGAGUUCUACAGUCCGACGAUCAUAAUGUCCUUUAUCCUGAUUUGAAAUAAUCACGUCAUCUUUCUGCUGAAUAAAAUUGGUUUGCAAGUUGUGGGGGUCCUGUCAUUAAUAUAUCAGGCAGGUAUUAAACUUGGAAUUCUCGGGUGCCAA | 0.361
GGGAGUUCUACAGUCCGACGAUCCACCAGGCUGAGGUCCUGAUCAGCUUCAAGGAGUAUGCAGGGAGCUGGGCUUCCAGAAAAUGAACACAGCAGUUCUGCAGAGGACGGGAGGCUGGAAGCUGGGAGGUCAGUGGAAUUCUCGGGUGCCAA | 0.78
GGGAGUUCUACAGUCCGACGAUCUGGGAAGCGCUGGGGUACAAAGAAAAUGCAAAUGUUCAAUGCAAGAUGUCUGUCUCCUUGCGUGUAGAUCCCAAAAGUGCUCUUCAGGGGUUCUGUGCUAGCUGAUGCAAUGGAAUUCUCGGGUGCCAA | 0.364
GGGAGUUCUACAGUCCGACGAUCUCUAAGUAAAUCCUCAGUCUGGUCUAUAUUGUUACUUGCCUGUUUCCACUAGAAGGAGUCACCCAGGCAUUUAGUGAAUGAUAAUCCUAGAAGUUGAGUCUGAGUACAUCUGGAAUUCUCGGGUGCCAA | 0.341
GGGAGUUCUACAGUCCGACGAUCAGGCCCCCAUAUACUCUGCUACAGCUCCUAUCAUGAAAAAUAAAAUGUUUGUCUUUGCAAAACAGUAGUUCUGAGGCAGUCAGGGCUGUGCCCUUGGAAAUGGAGACCUGUGGAAUUCUCGGGUGCCAA | 0.628

Sample 3
Target: Protein kinase C gamma type (PRKCG, Homo sapiens, UniProt P05129)
Observed: enzyme activity
Action: inhibitor
Concentration: 0.5 µM
Reference: control
Compound | remaining activity [%]
OCC(O)CCON=C1C(c2c(O)[nH]c3ccccc23)=Nc2ccccc21 (stereo not shown) | 92
CN(C)c1ccc(C=C2C(=O)Nc3ccccc32)cc1 | 96.8
O=C(Nc1cccc(Nc2cc(Nc3cccc(C(F)(F)F)c3)ncn2)c1)C1CC1 | 102
Nc1ccc2ncnc(NCCc3ccc(Oc4ccccc4)cc3)c2c1 | 95.2
O=S(=O)(c1cccc2cnccc12)N1CCCNCC1 | 110
Nc1ncnc2n[nH]c(Nc3ccc(F)cc3)c12 | 96
COc1ccc(C(=O)Nc2sc3c(c2C(N)=O)CCCC3)cc1OC | 93
Nc1[nH]nc2nc3ccccc3nc12 | 97.3
Cn1sc(=O)n(Cc2ccccc2)c1=O | 86.6
NCCNc1ncc(C(N)=O)c(Nc2cccc(C(F)(F)F)c2)n1 | 111
Oc1ccc(-c2nc(-c3ccncc3)c(-c3ccc(F)cc3)[nH]2)cc1 | 87.9
Cc1ccc(NC(=O)c2ccc(CN3CCN(C)CC3)cc2)cc1Nc1nc(-c2cccnc2)cs1 | 95.8
CCOC(=O)c1c(C)[nH]c(/C=C2\C(=O)Nc3ccccc32)c1C | 91.9
COc1cc2ncnc(Nc3ccc(Oc4ccccc4)cc3)c2cc1OC | 84.6
O=C1NC(=O)C(c2cn(CCCn3ccnc3)c3ccccc23)=C1Nc1ccccc1 | 51.6

Sample 4
Target: PABPC1L2, full length, GST fusion (mouse, UniProt A0ABA7IW68)
Technique: RNAcompete
Molecule type: RNA
Medium: in vitro
Concentration: 20 nM
Notes: 7-mer, probes averaged, single round
Reference: mean of 7-mers
Direction: higher = stronger binding
Target sequence (chain): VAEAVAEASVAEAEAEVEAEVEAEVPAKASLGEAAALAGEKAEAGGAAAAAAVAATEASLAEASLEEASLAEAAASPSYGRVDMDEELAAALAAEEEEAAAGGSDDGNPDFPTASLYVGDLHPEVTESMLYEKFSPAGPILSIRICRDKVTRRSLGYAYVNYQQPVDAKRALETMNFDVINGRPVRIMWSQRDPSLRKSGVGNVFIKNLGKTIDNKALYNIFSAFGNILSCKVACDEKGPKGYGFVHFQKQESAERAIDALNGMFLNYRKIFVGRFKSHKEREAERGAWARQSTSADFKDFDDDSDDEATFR
Sequence | 7-mer Z-score
CGCGACU | -0.117
AUAGUGG | 0.115
AAAAUAU | 5.46
CUCGUCA | -0.389
UGUAGGA | -0.00652
UGCAAAG | 0.0207
UGUCGAC | -0.0391
CAAUCGG | 0.0243

Some of these lines once more (sample 4):
Sequence | 7-mer Z-score
AAAAUAU | 5.46
UGUCGAC | -0.0391
CAAUCGG | 0.0243
UGCAAAG | 0.0207
